Measured values pooled from the literature.
Numbered parts are unrelated; each lists some results of a single study. Substitutions count along the parent as printed.

Series 1
Target: Interferon regulatory factor 7, full length, phosphomimetic (IRF7, Homo sapiens, UniProt Q92985, residues 1-503, S101K/S471D/S472D/S475D/S476D/S477D/S483D/S484D/S487D)
Sequence of UniProt Q92985 (whole entry, unmodified, looked up): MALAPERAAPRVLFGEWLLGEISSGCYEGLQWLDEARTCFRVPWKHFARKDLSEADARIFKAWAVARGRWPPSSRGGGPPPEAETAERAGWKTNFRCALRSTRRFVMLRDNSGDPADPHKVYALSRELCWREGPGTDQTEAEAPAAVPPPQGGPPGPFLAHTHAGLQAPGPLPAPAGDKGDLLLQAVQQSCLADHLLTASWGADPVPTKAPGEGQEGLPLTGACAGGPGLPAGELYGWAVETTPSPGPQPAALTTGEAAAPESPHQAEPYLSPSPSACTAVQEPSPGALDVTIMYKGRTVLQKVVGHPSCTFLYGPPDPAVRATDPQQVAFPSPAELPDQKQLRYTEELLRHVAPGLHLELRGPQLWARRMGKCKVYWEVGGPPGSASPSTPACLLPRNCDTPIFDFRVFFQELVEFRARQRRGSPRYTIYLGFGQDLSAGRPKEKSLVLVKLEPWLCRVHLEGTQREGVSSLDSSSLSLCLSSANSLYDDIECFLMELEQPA
Technique: protein-binding microarray
Molecule type: double-stranded DNA, one strand shown
Medium: in vitro
Tested at: 250 nM
Notes: 60-bp whole probe
Together with: salmon DNA 0.4 mg/ml
Relative to: random background probes
Reading: higher = stronger binding
Shared flanks, not repeated: GCCTAGCAC … GTCTTGATTCGCTTGACGCTGCTG
Sequence	log fluorescence
TCAACTTTCTTTAACTCACTGTGCTAG	0.37 z-score
TGAGGTATCGGGTTTCGGTTAGTGCTA	6.87 z-score
TACGGTTTCGGGTATCGGGACGTGCTA	7.73 z-score
GGGTTTTTTAGGCAGACAGCGTGCTAG	-0.016 z-score
TCAGTTTTACTTTCTATACTGTGCTAG	2.03 z-score
TCATATTAAAATTTAATACTGTGCTAG	0.645 z-score
GACGGTATCGGGTTTCGGAACGTGCTA	5.15 z-score
TTAGGACTGGGGAGTGGGTTAGTGCTA	-0.388 z-score
GACGATCTTAGACTGGAGACGTGCTAG	0.0763 z-score
TAAGGTATCGACTATCGGTTAGTGCTA	0.437 z-score
TTAGGTATCGACACTGGGTTGGTGCTA	0.0825 z-score
GACGATTTCAGTAACGAGACGTGCTAG	0.288 z-score
GACGATATCGGGTATCGAGCCGTGCTA	-0.443 z-score
GGCTGTTTGGTTCTGATCCTGTGCTAG	-0.393 z-score

Series 2
Target: ABI1, truncated, D143A, DHFR fusion (Arabidopsis thaliana)
Technique: DHFR PCA, deep sequencing
Medium: yeast
Notes: methotrexate growth selection, single substitutions
Together with: (+)-ABA 0.39 µM
Relative to: wild-type fitted maximum
Reading: higher = stronger binding
Starting sequence: PYL1, truncated, DHFR fusion (Arabidopsis thaliana); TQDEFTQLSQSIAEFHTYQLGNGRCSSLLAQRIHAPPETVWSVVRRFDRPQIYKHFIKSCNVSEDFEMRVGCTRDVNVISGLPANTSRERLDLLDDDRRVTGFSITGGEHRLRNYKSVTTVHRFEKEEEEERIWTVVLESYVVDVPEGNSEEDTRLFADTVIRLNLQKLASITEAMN; partner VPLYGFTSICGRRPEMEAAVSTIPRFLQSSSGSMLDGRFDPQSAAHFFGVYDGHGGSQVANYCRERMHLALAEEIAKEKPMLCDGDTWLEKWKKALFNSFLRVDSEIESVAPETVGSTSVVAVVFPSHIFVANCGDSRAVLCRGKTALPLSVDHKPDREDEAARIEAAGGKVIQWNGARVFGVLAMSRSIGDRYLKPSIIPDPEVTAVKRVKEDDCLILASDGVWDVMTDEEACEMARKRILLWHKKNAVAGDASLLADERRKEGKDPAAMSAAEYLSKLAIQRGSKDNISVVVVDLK
Variant	relative binding score
F56P	-3.8%
K126M	55.3%
N85G	33.2%
T154C	-1.97%
Y18A	6.46%
E127T	56.2%
A170S	-1.87%
C25I	51.6%
S150C	19.9%
A84L	18.5%
H122A	1.1%
V142A	33.6%
L112Y	-5.56%
I33N	-6.33%
V136Q	-4.57%
F103E	-13.9%
E152G	4.66%
H34A	52.3%

Series 3
Target: CCNE1, cyclin fold, Cln2 fusion (human)
Technique: yeast growth competition, sequencing
Medium: yeast
Notes: strong parent motif
Relative to: not given
Reading: higher = stronger binding
Starting sequence: CDKN1B docking peptide (human); PSACRNLFGPVDH; partner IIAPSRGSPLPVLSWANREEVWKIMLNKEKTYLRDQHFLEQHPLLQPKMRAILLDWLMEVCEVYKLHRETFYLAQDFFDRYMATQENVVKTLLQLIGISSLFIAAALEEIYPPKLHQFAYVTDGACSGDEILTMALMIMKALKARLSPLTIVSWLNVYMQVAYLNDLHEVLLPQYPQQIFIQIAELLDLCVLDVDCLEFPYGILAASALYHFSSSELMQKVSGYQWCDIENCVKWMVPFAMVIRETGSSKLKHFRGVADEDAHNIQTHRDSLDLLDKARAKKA
Variant	normalised enrichment score
H13K	3.31
N6E	1.34
N6Q	4.5
F8M	0.176
G9L	1.02
V11S	2.72
N6L	2.4
F8P	-0.0251
D12T	2.77
S2W	0.945
A3K	0.119
P10A	2.74
V11R	2.12
G9S	1.17
A3E	1.17

Series 4
Target: RNA binding protein fox-1 homolog 2, RRM domain, GST-SBP tag (RBFOX2, Homo sapiens, UniProt O43251-10, residues 100-194)
Technique: RNA Bind-n-Seq
Molecule type: RNA
Medium: in vitro
Tested at: 365 nM
Notes: natural RNA segment, single round, ends assumed
Relative to: no-protein control
Reading: higher = stronger binding
Target sequence (chain): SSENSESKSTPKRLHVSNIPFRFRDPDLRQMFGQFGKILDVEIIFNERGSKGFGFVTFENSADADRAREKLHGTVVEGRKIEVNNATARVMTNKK
Sequence	RBNS enrichment (R)
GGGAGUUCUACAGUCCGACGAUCAGGGCCUCAUAUGUUAGAUCACCUUGGGUGGCAAACACCCCAGUUCCCACGCAGUUGAGUGUCAUCACCCAAGUCCCUGUCAUCUAGGAAGGAAGUGGAUGCAGGGUGGAUGGAAUUCUCGGGUGCCAA	0.52
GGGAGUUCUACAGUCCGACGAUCGCCUUGGACUUAGAUCUGGGUUCUAACAGACUGAAUGUGCACCUUGGGUCUCAGACUCAGUUUCCCCGUUCAUACAUACAGGGAGUAUGAAGUCAGGUAGCCUAAGAUCUUGGAAUUCUCGGGUGCCAA	0.417
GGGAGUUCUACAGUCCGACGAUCCCAUUGUAAAUACUGCCUCGCCCCUCCUUUGAACUCCAGGGCAUCAGACCUCAAGGGGUAAACUGGACCCACCGGGGAAAGAAAGGGAAGAGGGGAGACCUCUUCUACGAUGGAAUUCUCGGGUGCCAA	0.26
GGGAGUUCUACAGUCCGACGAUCUCUAUUGGAGUCCUGAAUAAAUGCUGCUCUUUGGCUUCCAAAACCCUGCUCUCUCUGGCCUUGGGUCAUGAGGGUAUAAGGAAUAAACAUGGUGAGCUUGUUCUCCUUUUUGGAAUUCUCGGGUGCCAA	0.35
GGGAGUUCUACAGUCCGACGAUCUGUCUCUGCUUCCAUGGCUUCCUGAGAAAGCCCACCUGGGCUGGGCGCGGUGGCUCACGCCUGUAAUCCCAGCACUUUGGGAGGCCAAGGUGGGCGGAUCACAAGGUCAGUGGAAUUCUCGGGUGCCAA	0.257
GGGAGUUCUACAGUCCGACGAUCCCCCAGACCUAGACCUCCCUUCUAAAAGCCAGAACCAGGAAGGCUUGCAUAAAGAAGGUGUGGCCUCUGAGCUCUCAAGGGCCCCAGUUGCCACCAACCACCACCACAGGUGGAAUUCUCGGGUGCCAA	0.325
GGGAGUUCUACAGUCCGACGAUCAAGCGUAAAGAGGAUGUGUGGCAUUUUCACUUUUGGCUUGUAAAGUACAGACUUUUUUUUUUUUUUAAACAAAAAAAGCAUUGUAACUUAUGAACCUUUACAUCCAGAUAUGGAAUUCUCGGGUGCCAA	0.366
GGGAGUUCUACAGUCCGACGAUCGUAUGCAUAGAGCAUCUCCCCUGCCGGGUGUGUGAAUAACAUUGAAGCCCUCUGAGAAAGCAGGGCAAAUAGGGUGUAAGGGGCUUGGUUUUUCUGUUAGCUUGGACCACUGGAAUUCUCGGGUGCCAA	1.06
